Results pooled from the literature.
Protocols differ between the studies behind these lines. Values joined by “and” are separate records of one study, mostly repeats; a detail may differ.

| Compound | target or system | assay | system | conditions | scale | measurement | value |
| --- | --- | --- | --- | --- | --- | --- | --- |
| COc1cc2ncnc(Nc3ccc(Oc4ccccc4)c(C)c3C)c2cc1OC | LoVo (KRAS G13D) | cell growth, resazurin | – | 1 µM, 72 h, added: 0 nM trametinib | – | viability | 73.3% |
| CN1C(=O)C2(NN=C(c3ccccc3)S2)c2cc(Br)ccc21 (centres unmarked) | SK-N-BE(2) and SK-N-SH | MTT | – | 10 µM, 24 h | – | viability | active |
| COc1ccc(-n2nc(C(C)=O)s/c2=N\N=C(/C)c2ccc(NC(=O)c3ccccc3)cc2)cc1 | HepG2 | – | – | 2.5 µM | – | viability | 2.77% |
| CC(=O)Nc1cccc(-n2c(=O)n(C3CC3)c(=O)c3c(Nc4ccc(I)cc4F)n(C)c(=O)c(C)c32)c1 | LoVo (KRAS G13D) | resazurin | – | 100.00 nM, 72 h | baseline: DMSO | viability | 50.3% |
| Cc1cccc(-c2[nH]c(CNc3ccccc3F)nc2-c2ccc3ncnn3c2)n1 | MM1.S pomalidomide-resistant | XTT | – | 0.75 µM | – | viability | 100% and 91% and 82% |
| Cc1ccc(CNC(=O)Cn2cc(CSc3nc4ccccc4[nH]3)nn2)cc1 | MDA-MB-231 | MTT | – | 7.81 ppm | – | viability | 34.8% |
| O=C1NCN(c2ccccc2)C12CCN(CCCC(c1ccc(F)cc1)c1ccc(F)cc1)CC2 | MCF-10A | CellTiter-Glo | – | concentration not given | baseline: normalised, mean of replicates | viability | 52.7% |
| O=C(c1ccc(OCCN2CCCCC2)cc1)c1c(-c2ccc(O)cc2)sc2cc(O)ccc12 | Toxoplasma gondii | parasite growth | HFF, bradyzoite, glutamine-induced | – | – | EC50 | 8.67 µM |
| C=C[C@@]1(C)CC(=O)[C@]2(O)[C@@]3(C)[C@@H](O)CCC(C)(C)[C@@H]3[C@H](O)[C@H](OC(C)=O)[C@@]2(C)O1 | MCF-10A | CellTiter-Glo | – | concentration not given | baseline: normalised, mean of replicates | viability | 96% |
| CC(=O)c1nn(-c2ccc(Cl)cc2)/c(=N/N=C(\C)c2ccc(NC(=O)c3ccc(Cl)cc3)cc2)s1 | HepG2 | – | – | 0.312 µM | – | viability | 98.6% |
| CC(C)c1c(C(=O)Nc2ccccc2)c(-c2ccccc2)c(-c2ccc(F)cc2)n1CC[C@@H](O)C[C@@H](O)CC(=O)O | MCF-10A | CellTiter-Glo | – | concentration not given | baseline: normalised, mean of replicates | viability | 91.4% |
| CCCCCCNc1nc(NC2CCN(C)CC2)c2cc(OC)c(OC)cc2n1 | Toxoplasma gondii | parasite growth, luciferase reporter | HFF host cells, tachyzoites | 72 h | – | EC50 | 2.46 µM |
| CC(NCCc1ccc(O)cc1)C(O)c1ccc(O)cc1 (centres unmarked) | MCF-10A | CellTiter-Glo | – | concentration not given | baseline: normalised, mean of replicates | viability | 108% |
| Nc1cccc2c1C(=O)N(C1CCC(=O)NC1=O)C2=O (centres unmarked) | MM1.S | XTT | – | 3 µM | baseline: untreated | viability | 12% |

Some of these lines once more:
| Compound | target or system | assay | system | conditions | scale | measurement | value |
| --- | --- | --- | --- | --- | --- | --- | --- |
| CCCCCCNc1nc(NC2CCN(C)CC2)c2cc(OC)c(OC)cc2n1 | Toxoplasma gondii | parasite growth, luciferase reporter | HFF host cells, tachyzoites | 72 h | – | EC50 | 2.46 µM |
| COc1cc2ncnc(Nc3ccc(Oc4ccccc4)c(C)c3C)c2cc1OC | LoVo (KRAS G13D) | cell growth, resazurin | – | 1 µM, 72 h, added: 0 nM trametinib | – | viability | 73.3% |
